Measured values of several laboratories.
Every numbered part comes from another study and shows a few of its results, in no order.

Set 1
Target: Sal-like protein 4, full length isoform B (SALL4, Homo sapiens, UniProt Q9UJQ4-2, residues 1-616)
Method: universal PBM
Molecule type: double-stranded DNA, one strand shown
Sample: in vitro
Concentration: not given
Setting: 8-mer, flanks averaged, mean of replicates
Direction: higher = stronger binding
Strand	E-score
CCAGCACA	-0.0284
CAGAATCG	-0.126
ATACCATG	0.0517
ATAGGGGC	-0.192
GCAACGGC	-0.126
GCAAGCAA	0.109
CACAAATG	0.23
ACATCGTC	0.0325
CGAAGCCG	-0.331
CGCGTGAA	-0.0777
GCGATGGA	-0.147
CAGGTCTA	0.113
GTGGCGGA	-0.258
CCCAAGTA	0.0671
AATACTGG	0.00125
ACATTGTG	0.117
CAGAATAC	0.0938
AGAGGAAC	-0.0383
AATGCCAG	-0.034
CGGAACTA	-0.0664
ACGACCGG	-0.222
CCAGAACG	-0.0752
TCCCCAAA	0.154
GCCAGTCA	-0.153
GCAAACTA	-0.00046

Set 2
Target: RNA binding protein fox-1 homolog 2, RRM domain, GST-SBP tag (RBFOX2, Homo sapiens, UniProt O43251-10, residues 100-194)
Method: RNA Bind-n-Seq
Molecule type: RNA
Sample: in vitro
Concentration: 365 nM
Setting: natural RNA segment, single round, ends assumed
Relative to: no-protein control
Direction: higher = stronger binding
All sequences stand within: GGGAGUUCUACAGUCCGACGAUC … UGGAAUUCUCGGGUGCCAA
Target sequence (chain): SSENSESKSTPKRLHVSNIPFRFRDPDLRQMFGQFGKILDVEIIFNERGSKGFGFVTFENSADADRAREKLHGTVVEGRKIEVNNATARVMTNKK
Strand	RBNS enrichment (R)
CCGGGCCCAGCCCAGCCCUUCCUGAAGCCAGAAGCGUUGCUGAGUGUGUUCCCUGUAACUGCCCCAUAGUGGGCAGCCCUGGAGGAACAAGGGGCUGGCUGUCCUGGGCU	0.4
UUAACACUGCUAGGUAGCUCAGACAUAUCAGAAAAUCCAUAGUGGCCUGAGUUGUAAAUCCAAAACAUAUUUUUGUUGGCUUGGGACGUUAGGGGCUUGGGGUUUUCCUG	0.34
GCAGUAGACAUUGAAACCAGAGAUUGUCUUCAGAAUACAUAUAAUCUGAAUAGUGUGCUGGCGGGAGUGGUUUGUCGGAGCAGCCACACUGAUUCGGUGUUUUUGCAGUG	0.755
CUGUGUUGUAGCAGUGAUGUCAGUCCAUUGAUUGUCUUUAGAGAGUUAAUGUUACAAAAAAGAAUUCUUAAUAAUCAGACAAACAUGAUCUGCUGAGGACACAUGCGCUU	0.374
UUUGCUUUGGCUAUUUUUUGUUGUAACCUCUUGAUGUAACAGCACUUUAAAAGGGCGACAACUGACUCACGAGAUGGCAACCACCUGGAGCCUGUUUGGGGAGACCACCC	0.379
GACUGAGAGACUGACUGAGAGACUGCUGACUUGUAUUUUUCAGAGCUGCAGGUGGCCUGCCACGCCUGCCUGGCCAAGUUUCUGUUCCCCUCCUCCUAAAGUCAAGGUGG	0.481
ACCAAACAGGCCUCUCGCUCACUCCUCCCAGCCCAGUAAUGCUGAGGAGUUCAGUUGUGAGGAAAGAAGGCUGGAGCUGUGAGAUUCGCUUUUCCCUAGGCUGUUCCGCG	0.354
UUUAAGAAAAACAAUGUUAAUAUAAAAUUAGGUACAGGGUCUUGGAAGGGGCCCUGAAGAUUAAGCUUCCUUAGCGUCACAAUAAGUCCGUAUCUGGUUGCAAUUGAAAA	0.668

Set 3
Target: RING finger protein unkempt homolog, zinc fingers 1-6, GST-SBP tag (UNK, Homo sapiens, UniProt Q9C0B0, residues 30-357)
Method: RNA Bind-n-Seq
Molecule type: RNA
Sample: in vitro
Concentration: not given
Setting: RNA with constant flanks, human-mouse chimeric sites, ends assumed
Relative to: input RNA pool
Direction: higher = stronger binding
All sequences stand within: GGGAGUUCUACAGUCCGACGAUC … CAACAGAGGAUUGAGCAUCA
Residues (chain): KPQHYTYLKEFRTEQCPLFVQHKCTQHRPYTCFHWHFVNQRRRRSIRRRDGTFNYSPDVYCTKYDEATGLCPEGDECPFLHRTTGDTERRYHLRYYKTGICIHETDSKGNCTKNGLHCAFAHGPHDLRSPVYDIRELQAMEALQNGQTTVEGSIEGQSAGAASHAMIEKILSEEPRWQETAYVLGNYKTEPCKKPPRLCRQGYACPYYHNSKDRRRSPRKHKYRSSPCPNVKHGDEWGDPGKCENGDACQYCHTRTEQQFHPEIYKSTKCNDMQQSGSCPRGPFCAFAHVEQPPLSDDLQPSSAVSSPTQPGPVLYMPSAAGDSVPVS
Strand	bound/input enrichment [ratio]
GUGUCCUGCUUUCAACUAUCACUGAGGAGGCAUCUCUACUGUUCUGUUAAAAUCAGGACUGUAGCGCUGUGUCACCACAUGAGAGUUCAGAAGCAGCCUUUCUGUGGAGGGUGGGAAUGA	0.111
CUGUGACCACAAGAUCCUACCUGAGUGGCAGCUGAAGCACUUUUCUUCUCCUUGCCUGAACCCCCCCCCACUGCCCCCCCAUCCCCCAGUGUCGGCUGAGAUGUUGCCAGCAGACAGUUC	0.661
CAGGGCAUCAUCUCUCGUGCUGUUAGACACCUGUUCAAGAGUAUUGAAGAAAAAAAAACCUCAGCGAUUAAAAACGGGCUGCCCCCUCCAGAUUUUAAAGUGAAUGCCCAGUUCCUAGAG	0.778
GUUGCCAGCUUCCGGUUCCGUUGGGCUAGCAAGCUCCCUGAGCUACGUGUCUCUACGCUCUCAAUCCGCCAUCCAACAAACAUGGAUCAGGUAAUGCAGUUUGUGGAUGAGCCAAGUCAG	0.0414
UACAUUUUAUUGUUGAGUUUCAUUUUCAUAUAUUCUUAUGGUGUCUGCUUGCCUGUGACUUCUGGUAAAAUAAAAUAAGCCUUUGAAAAUAUUUUAGCAUGGUAUUUAACAUUUUCUAAA	1.38
CUGAGGAUACCACUGAAGAGACCUUAAAAGGAGUCAUUGAGGGCUCUGUUCGUGCAAGAAUAGUCACUGAUCGGGAAACUGGUUCUUCCAAAGGGUUUGGUUUUGUAAGACUUCAACGUG	0.32
GAUCAUGAACCACCAUCAGAAAUGAAGAUGAGAUUACCCAGACGAGCCAAAACAGCUAGCACUAGAAAAAGUAAACUUAACCUUGCAGAGUUCCUUAAUGAAGAUACAAGUUAAGAGAGC	3.92
AAAGAAUGGAUAGAGUGUGCACACGGGAUCGGUGGGACCCGGGCGAAAAAGGAGUGCAAGAUAGAAUUCGAUGACUUCGAAGAGUGCUUGCUUCGGUACAAAACGAUGAGGCGAAUGCAU	0.571

Set 4
Target: Histone acetyltransferase KAT6A, winged helix 1, GST fusion (KAT6A, Homo sapiens, UniProt Q92794, residues 1-85)
Method: protein binding microarray
Molecule type: double-stranded DNA, one strand shown
Sample: in vitro
Concentration: not given
Setting: 8-mer, flanks averaged, mean of 2 arrays, mostly near background
Relative to: not given
Direction: higher = stronger binding
Residues (chain): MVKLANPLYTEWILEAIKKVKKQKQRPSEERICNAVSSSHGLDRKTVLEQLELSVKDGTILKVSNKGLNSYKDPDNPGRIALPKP
Strand	E-score
TAAACGAA	-0.0547
CTTGGTTA	-0.109
ACTATGTG	-0.0675
AGGCGAAG	-0.119
CCTTGAGC	0.00256
CGTTGCGA	0.0715
CGTCCTTC	0.0355
ATGATGTA	-0.0745
GCACACCC	-0.0276
AGTCTGAC	-0.271
AAGTCCAT	-0.157
CCGACGGC	0.482
CTTACGCA	0.0543
CGCTCAAG	0.203
AGACTGTC	-0.0471
CGGCCACG	0.26
AGAAGTCC	-0.203
ATATATTC	-0.092
TATGGAAA	-0.232
AGGGAGGA	-0.238

Excerpt of the above (set 1):
Strand	E-score
ACGACCGG	-0.222
GCGATGGA	-0.147
CAGAATCG	-0.126
GCAAGCAA	0.109
CACAAATG	0.23
GCCAGTCA	-0.153
TCCCCAAA	0.154
CGAAGCCG	-0.331
ATAGGGGC	-0.192
CCAGCACA	-0.0284
